Measurements gathered from unrelated publications.
Each numbered part is a random draw from the data of one study; scales do not carry over between parts. Changes are numbered by the printed parent chain.

Sample 1
Target: Prothrombin, mature alpha-thrombin (F2, Homo sapiens, UniProt P00734)
Method: aptamer microarray, sandwich
Form: DNA with 2'F-ANA
Matrix: in vitro
Tested at: 200 nM
Setting: whole 15-mer aptamer, many near background
With: Cy3 exosite-II aptamer, 400 nM
Reading: higher = stronger binding
Measurement: mean fluorescence intensity
Strand: GGTTGGTGTGGTTGG
Modification = 2'F-ANA at 5 6 7 8 10 15; result = 59.3 a.u.
Modification = 2'F-ANA at 2 3 4 7 8 10 12 13 14 15; result = 186 a.u.
Modification = 2'F-ANA at 2 4 5 6 7 8 9 10 11 12 13 14; result = 48.7 a.u.
Modification = 2'F-ANA at 5 7 9 10 11 13 14; result = 44.2 a.u.
Modification = 2'F-ANA at 4 5 7 9 10 13; result = 48.8 a.u.
Modification = 2'F-ANA at 1 3 6 10 12 13; result = 98.2 a.u.
Modification = 2'F-ANA at 1 4 7 9 11 12 13; result = 142 a.u.
Modification = 2'F-ANA at 2 3 6 8 9 13 15; result = 521 a.u.
Modification = 2'F-ANA at 1 4 5 7 8 10 12 14; result = 46.1 a.u.
Modification = 2'F-ANA at 1 2 3 4 7 9 11 13; result = 272 a.u.
Modification = 2'F-ANA at 3 6 7 8 12 13 14; result = 645 a.u.
Modification = 2'F-ANA at 1 3 5 6 7 10 12; result = 48 a.u.
Modification = 2'F-ANA at 1 2 4 7 9 10 12 14; result = 61.2 a.u.
Modification = 2'F-ANA at 1 2 3 6 8 9 11 12 14; result = 78.1 a.u.
Modification = 2'F-ANA at 1 2 3 5 7 9 10 11 13 14; result = 51.1 a.u.
Modification = 2'F-ANA at 2 4 5 8 9 11 14 15; result = 55.7 a.u.
Modification = 2'F-ANA at 1 2 3 5 7 9 12 13; result = 92.2 a.u.
Modification = 2'F-ANA at 3; result = 1300 a.u.
Modification = 2'F-ANA at 1 5 7 9 10 12 14 15; result = 142 a.u.
Modification = 2'F-ANA at 5 6 11 13 14 15; result = 44.1 a.u.
Modification = 2'F-ANA at 2 3 4 6 7; result = 640 a.u.
Modification = 2'F-ANA at 2 3 5 6 8 9 10 13 15; result = 48.2 a.u.
Modification = 2'F-ANA at 2 4 5 11 13; result = 51.7 a.u.
Modification = 2'F-ANA at 2 3 4 5 6 7 9 10 11 12 15; result = 59.9 a.u.
Modification = 2'F-ANA at 1 2 5 6 8 11 12 13 15; result = 72.7 a.u.

Sample 2
Target: Ras GTPase-activating protein-binding protein 1, C-terminal RGG region (G3BP1, Homo sapiens, UniProt Q13283)
UniProt Q13283, sequence (whole entry, looked up): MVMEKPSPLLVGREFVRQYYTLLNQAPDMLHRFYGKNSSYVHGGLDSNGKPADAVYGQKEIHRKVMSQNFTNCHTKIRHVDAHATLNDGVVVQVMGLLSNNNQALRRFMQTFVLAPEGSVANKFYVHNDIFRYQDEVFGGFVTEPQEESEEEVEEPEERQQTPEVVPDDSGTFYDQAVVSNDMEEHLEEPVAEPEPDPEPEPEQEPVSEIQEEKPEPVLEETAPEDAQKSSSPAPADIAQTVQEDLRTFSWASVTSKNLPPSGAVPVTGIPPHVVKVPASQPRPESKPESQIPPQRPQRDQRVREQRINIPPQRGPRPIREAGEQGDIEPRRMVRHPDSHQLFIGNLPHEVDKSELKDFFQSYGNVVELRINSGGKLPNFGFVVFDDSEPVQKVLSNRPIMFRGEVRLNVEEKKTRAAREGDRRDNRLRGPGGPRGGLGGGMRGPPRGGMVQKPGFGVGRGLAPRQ
Method: RNA Bind-n-Seq
Form: RNA
Matrix: in vitro
Tested at: 1 µM
Setting: whole 134-nt RNA, ends assumed
With: 150 mM KCl
Relative to: input library
Reading: higher = stronger binding
Measurement: log2 enrichment
Shared flanks, not repeated: GGGAGUUCUACAGUCCGACGAUC … UGGAAUUCUCGGGUGUCAAGG
Strand = GUCCUGUGCUACACAUCGUAUGUACCGAAUCGGAAAAAGGGGAAAAAGGGGAAAAAGGGAAAGUAUUAUGUUACGCCGUUCGGAUCUGCA; result = -0.482
Strand = CAAGUCCUGUGCUACACAUCGUAUGUACCGAAUCGGCCCGGGGCCCGGGCCCGGGAAAGUAUUAUGUUACGCCGUUCGGAUCUGCACUUC; result = -1.59
Strand = UGGGAGGUGGAUUUUGUUUAUUUUUUUAGCUCAUUUCCAGGGGUGGGAAUUUUUUUUUAAUAUGUGUCAUGACUAAAGUUGUUUUUGAAA; result = 2.67
Strand = CUGUGCUACACAUCGUAUGUACCGAAUCGGUUUUUUUGGGGUUUUUUUGGGUUUUUUUGGGGAAAGUAUUAUGUUACGCCGUUCGGAUCU; result = -1.14
Strand = CUCAAGUCCUGUGCUACACAUCGUAUGUACCGAAUCGGCCCGGGCCCGGCCCGGAAAGUAUUAUGUUACGCCGUUCGGAUCUGCACUUCC; result = -1.34
Strand = GUCCUGUGCUACACAUCGUAUGUACCGAAUCAAAUUUAAAUUUUUAAAUUUUUUUAAAAAAGUAUUAUGUUACGCCGUUCGGAUCUGCAC; result = -2.63
Strand = AAGUCCUGUGCUACACAUCGUAUGUACCGAAUCGGGUUUUGGUUUUGGGUUUUGGGGAAAGUAUUAUGUUACGCCGUUCGGAUCUGCACU; result = -0.831
Strand = UCCUCAAGUCCUGUGCUACACAUCGUAUGUACCGAAUCGGGCGGGGCGGCGGAAAGUAUUAUGUUACGCCGUUCGGAUCUGCACUUCCAG; result = -0.698
Strand = UGUGCUACACAUCGUAUGUACCGAAUCGGGGCCCCCCCGGGCCCCCCCGGGGCCCCCCCGGGAAAGUAUUAUGUUACGCCGUUCGGAUCU; result = -2.51
Strand = AAGUCCUGUGCUACACAUCGUAUGUACCGAAUCGGGGUUUGGGGUUUGGGUUUGGGAAAGUAUUAUGUUACGCCGUUCGGAUCUGCACUU; result = 1.68

Sample 3
Target: FOSB, bZIP domain (human)
Method: DHFR protein complementation
Matrix: yeast
Setting: single substitutions, most at no-binding floor
Relative to: wild-type JUN-FOS pair
Reading: higher = stronger binding
Measurement: binding fitness
Starting sequence: JUN, bZIP domain (human); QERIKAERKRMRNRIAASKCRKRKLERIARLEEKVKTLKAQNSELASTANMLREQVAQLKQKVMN; partner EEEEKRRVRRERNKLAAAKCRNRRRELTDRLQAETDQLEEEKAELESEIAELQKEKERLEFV
Change = T48L; result = -0.0813 natural log
Change = T37G; result = -0.172 natural log
Change = L52K; result = -0.968 natural log
Change = L59T; result = -0.68 natural log
Change = E44W; result = -0.41 natural log
Change = A40G; result = -0.265 natural log
Change = L45Y; result = -0.646 natural log
Change = T37D; result = -0.136 natural log
Change = A49S; result = -0.594 natural log
Change = S47H; result = -0.0541 natural log
Change = I28E; result = -0.126 natural log
Change = K39V; result = -0.493 natural log
Change = M51H; result = -0.122 natural log
Change = K34S; result = -0.198 natural log
Change = E33G; result = -0.305 natural log
Change = E54L; result = -0.279 natural log
Change = M51K; result = -0.0687 natural log
Change = R30Q; result = 0.0236 natural log
Change = T37S; result = -0.0935 natural log

Sample 4
Target: ABI1, truncated, D143A, DHFR fusion (Arabidopsis thaliana)
Method: DHFR PCA, deep sequencing
Matrix: yeast
Setting: methotrexate growth selection, single substitutions
With: (+)-ABA 0.39 µM
Relative to: wild-type fitted maximum
Reading: higher = stronger binding
Measurement: relative binding score
Starting sequence: PYL1, truncated, DHFR fusion (Arabidopsis thaliana); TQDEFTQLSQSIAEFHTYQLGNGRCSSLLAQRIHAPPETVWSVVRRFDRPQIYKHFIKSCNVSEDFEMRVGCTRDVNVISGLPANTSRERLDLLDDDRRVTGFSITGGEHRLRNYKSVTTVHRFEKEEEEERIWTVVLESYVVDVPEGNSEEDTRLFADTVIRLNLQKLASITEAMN
Change = T73P; result = -5.96%
Change = S150L; result = 0.762%
Change = I133C; result = 60.2%
Change = L28G; result = -3.56%
Change = D144R; result = -14.9%
Change = E130S; result = 69.4%
Change = E151D; result = 15%
Change = D75N; result = 46.7%
Change = E67L; result = 20.3%
Change = L156Y; result = -12.2%
Change = A13K; result = 56.4%
Change = R99A; result = 2.17%
Change = R46Y; result = -33.2%
Change = I12S; result = -3.93%

Sample 5
Target: CCNA2, cyclin fold, Cln2 fusion (human)
Method: yeast growth competition, sequencing
Matrix: yeast
Setting: strong parent motif
Relative to: not given
Reading: higher = stronger binding
Measurement: normalised enrichment score
Starting sequence: WEE1 docking peptide (human); CTLRQKLIFSPCS
Change = S10A; result = 1.19
Change = F9A; result = 0.147
Change = Q5A; result = 1.19
Change = T2A; result = 1.33
Change = C12A; result = 1.17
Change = I8A; result = 1.26
Change = C1A; result = 1.2

Sample 6
Target: Histone acetyltransferase KAT6A, winged helix 2, GST fusion (KAT6A, Homo sapiens, UniProt Q92794, residues 85-181)
Method: protein binding microarray
Form: double-stranded DNA, one strand shown
Matrix: in vitro
Tested at: not given
Setting: 8-mer, flanks averaged, mean of 2 arrays, mostly near background
Relative to: not given
Reading: higher = stronger binding
Measurement: E-score
Construct (chain): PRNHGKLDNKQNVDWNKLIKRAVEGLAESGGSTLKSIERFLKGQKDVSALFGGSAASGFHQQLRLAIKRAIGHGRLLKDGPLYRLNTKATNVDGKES
Strand = GATCCCTA; result = -0.127
Strand = CCGGAGTA; result = 0.0735
Strand = GATCCCCA; result = -0.023
Strand = AAGCGACG; result = -0.111
Strand = CCGATCCC; result = 0.0449
Strand = TACTTTAA; result = -0.206
Strand = CAGGCTAC; result = 0.0226
Strand = GCAACGAA; result = 0.153
Strand = CTCGGGTC; result = 0.129
Strand = CGAGCGCC; result = 0.0875
Strand = ATTTCGTA; result = -0.00622
Strand = CACTTGAC; result = -0.0239
Strand = AAAAATCA; result = 0.107
Strand = CAGTAGGC; result = 0.0121
Strand = ATCGGAAC; result = -0.0862
Strand = GGTGTTCA; result = 0.0342
Strand = CAGGTACG; result = 0.0123
Strand = CAGTACCA; result = 0.0372
Strand = AGAATTTG; result = 0.0341
Strand = ATCCATGA; result = -0.141
Strand = AAGCGATC; result = -0.012
Strand = TCGCGCCA; result = 0.231
Strand = CAAATGCA; result = -0.0172
Strand = ATTGGTAA; result = -0.0177
Strand = GATTCTCC; result = 0.108

Sample 7
Target: Interferon regulatory factor 3, full length, phosphomimetic (IRF3, Homo sapiens, UniProt Q14653, residues 1-427, S386D/S396D/S398D/S402D/T404D/S405D)
UniProt Q14653, sequence (whole entry, unmodified, looked up): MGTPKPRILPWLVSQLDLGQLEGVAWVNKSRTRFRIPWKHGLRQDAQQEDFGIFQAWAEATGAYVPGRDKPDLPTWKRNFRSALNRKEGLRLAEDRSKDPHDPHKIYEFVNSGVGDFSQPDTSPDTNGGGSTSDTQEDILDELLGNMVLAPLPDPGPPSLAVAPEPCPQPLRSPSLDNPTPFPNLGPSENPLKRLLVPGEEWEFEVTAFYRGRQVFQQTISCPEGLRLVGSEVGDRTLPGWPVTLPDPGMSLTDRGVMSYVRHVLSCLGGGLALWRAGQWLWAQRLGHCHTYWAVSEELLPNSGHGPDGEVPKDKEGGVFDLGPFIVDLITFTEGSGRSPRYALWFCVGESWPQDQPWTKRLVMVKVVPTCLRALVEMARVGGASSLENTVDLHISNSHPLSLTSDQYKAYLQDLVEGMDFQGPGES
Method: protein-binding microarray
Form: double-stranded DNA, one strand shown
Matrix: in vitro
Tested at: 2540 nM top
Setting: 60-bp whole probe
With: salmon DNA 0.4 mg/ml
Relative to: random background probes
Reading: higher = stronger binding
Measurement: fitted relative affinity
Shared flanks, not repeated: GCCTAGCAC … GTCTTGATTCGCTTGACGCTGCTG
Strand = TTAGGTTTCCTTTTACTTTAGTGCTAG; result = 10.3 z-score
Strand = GACGGACTTGACACTGGGGACGTGCTA; result = -0.713 z-score
Strand = TTACAACTGGGGTATCGATTAGTGCTA; result = -0.126 z-score
Strand = TTAGGTTTCTGTCTCGGTTAGTGCTAG; result = 4.74 z-score
Strand = TTAGGAGTGCTTATCCTTTAGTGCTAG; result = -0.169 z-score
Strand = GACGACTTCGGGTTTCGAGACGTGCTA; result = 0.524 z-score
Strand = GACGGTATCGGGTATCAGGACGTGCTA; result = 2.19 z-score
Strand = TTAGGTCTCCTTCTCGTTTAGTGCTAG; result = 4.73 z-score
Strand = TTAGGACTGGGTACCGGTTAGTGCTAG; result = -0.0309 z-score
Strand = GACGGACTGGTACTGGGGACGTGCTAG; result = -0.498 z-score
Strand = TTAGGTTTCGGTATCGGTGAGTGCTAG; result = 8.56 z-score
Strand = TTAGGTTTCGATTTTCGGTTAGTGCTA; result = 7.49 z-score
Strand = TTAGGTTTCGGGTTTCGATTAGTGCTA; result = 5.7 z-score
Strand = TCACCTCTAGGTTCTCTGACTGTGCTA; result = -0.112 z-score
Strand = TCACTTGTCCCTCCGGGACTGTGCTAG; result = 0.0329 z-score
Strand = ATGTAATTCCTGCCTGAGCTCGTGCTA; result = -0.332 z-score
Strand = GACGGTTCCGGTTGCGGGACGTGCTAG; result = 2.37 z-score
Strand = GACGATATCGGGTTACGAGACGTGCTA; result = 0.412 z-score
Strand = GACGAACTGAGACTGAAGACGTGCTAG; result = -0.107 z-score
Strand = GACGGTCTCTTTTTCCTGACGTGCTAG; result = 1.75 z-score
Strand = TTTGGTTTCGGTTCCGGTTAGTGCTAG; result = 11.3 z-score
Strand = GACGGTACCGACTATCGGGACGTGCTA; result = 1.06 z-score
Strand = GACGGTTTCCCTTTCCTGACGTGCTAG; result = 9.5 z-score
Strand = TTAGATTCCGGTTTCGGTTAGTGCTAG; result = 6.24 z-score
Strand = GTAGGACTGGGGTATCGGTTAGTGCTA; result = -0.219 z-score
